Measured values collected from several papers.
Every numbered part comes from another study and shows a few of its results, in no order.
Sequence of UniProt P11802 (whole entry, looked up): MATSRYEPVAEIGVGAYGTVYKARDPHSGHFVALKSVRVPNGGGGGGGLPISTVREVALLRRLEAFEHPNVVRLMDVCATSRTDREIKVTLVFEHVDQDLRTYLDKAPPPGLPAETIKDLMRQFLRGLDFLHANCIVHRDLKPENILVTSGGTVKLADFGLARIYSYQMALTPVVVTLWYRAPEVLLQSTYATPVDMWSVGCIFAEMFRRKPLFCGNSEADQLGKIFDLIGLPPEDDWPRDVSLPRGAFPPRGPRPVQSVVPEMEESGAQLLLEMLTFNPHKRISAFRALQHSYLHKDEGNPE
Sequence of UniProt Q59H18 (whole entry, looked up): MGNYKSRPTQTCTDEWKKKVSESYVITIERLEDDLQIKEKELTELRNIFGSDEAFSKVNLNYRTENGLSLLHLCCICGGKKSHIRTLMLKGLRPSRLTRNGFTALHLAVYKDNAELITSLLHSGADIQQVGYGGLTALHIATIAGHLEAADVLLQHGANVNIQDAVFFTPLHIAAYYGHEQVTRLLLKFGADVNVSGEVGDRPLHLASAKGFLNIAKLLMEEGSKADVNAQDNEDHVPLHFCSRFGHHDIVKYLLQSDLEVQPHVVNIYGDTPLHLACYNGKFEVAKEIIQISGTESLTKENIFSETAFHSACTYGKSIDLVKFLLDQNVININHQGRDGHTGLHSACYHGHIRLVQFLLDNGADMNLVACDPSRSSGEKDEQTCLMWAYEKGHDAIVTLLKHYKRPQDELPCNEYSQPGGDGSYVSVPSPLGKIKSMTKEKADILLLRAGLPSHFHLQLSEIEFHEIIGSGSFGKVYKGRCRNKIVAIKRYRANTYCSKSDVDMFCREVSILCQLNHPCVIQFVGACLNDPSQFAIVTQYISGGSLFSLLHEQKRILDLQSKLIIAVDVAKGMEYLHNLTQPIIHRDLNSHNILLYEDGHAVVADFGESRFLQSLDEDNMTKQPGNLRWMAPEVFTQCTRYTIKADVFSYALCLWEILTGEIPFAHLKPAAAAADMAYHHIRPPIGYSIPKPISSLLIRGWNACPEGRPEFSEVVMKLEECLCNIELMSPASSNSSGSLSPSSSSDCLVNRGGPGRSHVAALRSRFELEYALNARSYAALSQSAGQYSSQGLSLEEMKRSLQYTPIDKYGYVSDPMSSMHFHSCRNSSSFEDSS
Sequence of UniProt Q13705 (whole entry, looked up): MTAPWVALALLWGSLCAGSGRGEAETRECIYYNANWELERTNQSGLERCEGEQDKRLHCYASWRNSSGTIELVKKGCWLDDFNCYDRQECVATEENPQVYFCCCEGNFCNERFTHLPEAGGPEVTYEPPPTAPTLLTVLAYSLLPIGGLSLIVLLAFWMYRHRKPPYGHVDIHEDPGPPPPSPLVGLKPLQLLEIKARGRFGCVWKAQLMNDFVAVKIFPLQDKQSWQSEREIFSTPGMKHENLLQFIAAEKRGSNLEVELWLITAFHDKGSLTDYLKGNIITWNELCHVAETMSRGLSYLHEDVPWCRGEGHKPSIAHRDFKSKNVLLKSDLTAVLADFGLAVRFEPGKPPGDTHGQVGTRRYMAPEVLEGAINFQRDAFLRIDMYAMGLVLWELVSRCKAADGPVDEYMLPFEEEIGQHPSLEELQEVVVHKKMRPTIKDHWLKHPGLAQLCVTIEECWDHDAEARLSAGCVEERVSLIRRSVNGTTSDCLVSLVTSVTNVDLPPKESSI
Sequence of UniProt Q13554 (whole entry, looked up): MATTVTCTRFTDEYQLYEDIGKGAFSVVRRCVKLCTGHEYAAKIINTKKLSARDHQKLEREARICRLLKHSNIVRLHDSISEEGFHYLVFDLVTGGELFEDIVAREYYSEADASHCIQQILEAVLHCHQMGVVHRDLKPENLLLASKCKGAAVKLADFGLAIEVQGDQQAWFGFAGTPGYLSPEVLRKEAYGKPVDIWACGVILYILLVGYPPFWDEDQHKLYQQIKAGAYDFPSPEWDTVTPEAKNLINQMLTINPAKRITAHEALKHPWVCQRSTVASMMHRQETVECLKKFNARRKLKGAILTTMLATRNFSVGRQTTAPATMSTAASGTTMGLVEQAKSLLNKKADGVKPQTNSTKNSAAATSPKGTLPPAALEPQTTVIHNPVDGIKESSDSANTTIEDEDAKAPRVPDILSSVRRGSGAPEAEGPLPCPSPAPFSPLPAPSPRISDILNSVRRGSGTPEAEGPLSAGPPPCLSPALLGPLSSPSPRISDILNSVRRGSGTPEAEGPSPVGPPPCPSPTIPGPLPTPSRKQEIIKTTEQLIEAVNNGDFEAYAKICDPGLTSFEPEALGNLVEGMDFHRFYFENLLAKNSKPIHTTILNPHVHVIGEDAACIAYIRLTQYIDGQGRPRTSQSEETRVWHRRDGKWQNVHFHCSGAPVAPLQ
Sequence of UniProt O95747 (whole entry, looked up): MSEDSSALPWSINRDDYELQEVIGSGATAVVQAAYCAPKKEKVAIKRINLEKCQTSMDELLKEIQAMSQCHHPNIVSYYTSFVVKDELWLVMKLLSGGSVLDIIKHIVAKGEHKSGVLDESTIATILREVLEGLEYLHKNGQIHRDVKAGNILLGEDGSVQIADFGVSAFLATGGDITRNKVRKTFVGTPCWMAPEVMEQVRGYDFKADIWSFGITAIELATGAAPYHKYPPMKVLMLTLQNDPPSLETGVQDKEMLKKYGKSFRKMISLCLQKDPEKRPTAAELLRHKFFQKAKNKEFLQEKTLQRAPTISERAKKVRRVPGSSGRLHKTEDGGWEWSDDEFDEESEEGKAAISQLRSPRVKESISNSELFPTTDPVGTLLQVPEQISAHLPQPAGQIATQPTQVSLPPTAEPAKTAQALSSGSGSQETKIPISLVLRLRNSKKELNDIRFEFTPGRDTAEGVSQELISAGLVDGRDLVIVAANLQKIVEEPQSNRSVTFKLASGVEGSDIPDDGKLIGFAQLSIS
Sequence of UniProt Q96J92 (whole entry, looked up): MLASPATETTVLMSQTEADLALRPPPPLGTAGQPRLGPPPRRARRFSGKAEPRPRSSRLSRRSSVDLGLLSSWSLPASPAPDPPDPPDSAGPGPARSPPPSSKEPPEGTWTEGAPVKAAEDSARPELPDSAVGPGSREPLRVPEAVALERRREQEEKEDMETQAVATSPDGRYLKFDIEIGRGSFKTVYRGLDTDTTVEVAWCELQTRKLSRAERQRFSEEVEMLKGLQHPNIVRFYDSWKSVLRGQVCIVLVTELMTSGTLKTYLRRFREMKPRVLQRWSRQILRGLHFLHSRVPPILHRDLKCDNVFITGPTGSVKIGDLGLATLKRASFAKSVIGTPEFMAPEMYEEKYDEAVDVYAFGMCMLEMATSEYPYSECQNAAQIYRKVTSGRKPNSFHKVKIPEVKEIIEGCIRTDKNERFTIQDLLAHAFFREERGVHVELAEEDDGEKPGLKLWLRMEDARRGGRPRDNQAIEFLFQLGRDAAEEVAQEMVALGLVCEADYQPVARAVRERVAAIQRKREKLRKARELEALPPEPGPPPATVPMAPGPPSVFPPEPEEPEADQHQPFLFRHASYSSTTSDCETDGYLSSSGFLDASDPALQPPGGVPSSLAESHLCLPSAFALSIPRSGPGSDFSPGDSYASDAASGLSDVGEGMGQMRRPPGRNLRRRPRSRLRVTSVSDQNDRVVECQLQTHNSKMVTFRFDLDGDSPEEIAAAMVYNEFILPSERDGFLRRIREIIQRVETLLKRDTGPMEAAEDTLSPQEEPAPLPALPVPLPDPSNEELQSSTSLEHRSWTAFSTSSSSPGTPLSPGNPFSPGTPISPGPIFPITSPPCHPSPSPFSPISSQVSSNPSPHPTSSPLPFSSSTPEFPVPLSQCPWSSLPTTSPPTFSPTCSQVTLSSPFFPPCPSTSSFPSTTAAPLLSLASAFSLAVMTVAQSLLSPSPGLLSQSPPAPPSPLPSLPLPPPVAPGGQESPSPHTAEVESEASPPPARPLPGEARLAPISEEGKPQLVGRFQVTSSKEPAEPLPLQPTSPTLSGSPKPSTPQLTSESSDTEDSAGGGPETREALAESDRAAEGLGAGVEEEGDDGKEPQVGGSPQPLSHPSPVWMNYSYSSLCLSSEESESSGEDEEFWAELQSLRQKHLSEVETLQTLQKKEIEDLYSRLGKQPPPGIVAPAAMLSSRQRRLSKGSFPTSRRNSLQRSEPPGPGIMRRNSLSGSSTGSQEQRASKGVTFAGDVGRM
Sequence of UniProt Q00535 (whole entry, looked up): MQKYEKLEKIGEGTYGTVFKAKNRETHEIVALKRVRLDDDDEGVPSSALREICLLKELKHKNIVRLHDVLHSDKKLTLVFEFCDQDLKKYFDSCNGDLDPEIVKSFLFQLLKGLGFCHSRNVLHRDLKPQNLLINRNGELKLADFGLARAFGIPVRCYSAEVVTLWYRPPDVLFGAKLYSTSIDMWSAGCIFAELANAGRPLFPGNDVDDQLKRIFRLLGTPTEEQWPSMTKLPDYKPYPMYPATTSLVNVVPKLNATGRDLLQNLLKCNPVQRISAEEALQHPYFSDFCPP

Block 1
Target: Sal-like protein 4, full length isoform B (SALL4, Homo sapiens, UniProt Q9UJQ4-2, residues 1-616)
Technique: universal PBM
Molecule type: double-stranded DNA, one strand shown
Medium: in vitro
Tested at: not given
Notes: 8-mer, flanks averaged, mean of replicates
Reading: higher = stronger binding
Quantity: E-score
Residues (chain): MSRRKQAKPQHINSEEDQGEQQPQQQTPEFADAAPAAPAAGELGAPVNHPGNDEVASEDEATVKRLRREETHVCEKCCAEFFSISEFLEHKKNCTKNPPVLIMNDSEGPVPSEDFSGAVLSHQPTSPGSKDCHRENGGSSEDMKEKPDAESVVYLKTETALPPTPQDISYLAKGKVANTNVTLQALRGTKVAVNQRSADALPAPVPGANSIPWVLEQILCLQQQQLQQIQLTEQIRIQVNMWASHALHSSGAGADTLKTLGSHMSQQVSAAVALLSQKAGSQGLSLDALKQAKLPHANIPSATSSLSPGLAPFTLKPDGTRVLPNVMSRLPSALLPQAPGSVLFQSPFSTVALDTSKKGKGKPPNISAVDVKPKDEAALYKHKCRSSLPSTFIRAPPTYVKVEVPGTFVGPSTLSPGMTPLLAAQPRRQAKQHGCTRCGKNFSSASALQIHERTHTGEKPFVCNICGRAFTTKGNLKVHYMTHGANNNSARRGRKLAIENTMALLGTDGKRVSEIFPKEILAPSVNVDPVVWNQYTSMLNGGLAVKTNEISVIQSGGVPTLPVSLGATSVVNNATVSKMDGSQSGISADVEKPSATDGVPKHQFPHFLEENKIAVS
CGGCCCGA: -0.373
CATGTCTA: 0.152
AGATTATG: 0.273
CTTCCATA: 0.202
CTCTGTGA: -0.0813
AAGTGTCG: 0.0623
ATAGGAAC: 0.16
AGGTTACC: -0.0561

Block 2
SMILES: C[C@H](c1ccc(F)cc1)N(Cc1cccc(C(=O)O)c1)C(=O)c1cnc2ccccc2c1
Technique: competition with immobilised ligand
Tested at: 1 µM
Quantity: remaining binding
Serine/threonine-protein kinase WNK4 (WNK4, Homo sapiens, UniProt Q96J92); cell-free assay: 91%
Casein kinase I isoform epsilon (CSNK1E, Homo sapiens, UniProt P49674); cell-free assay: 100%
Receptor-type tyrosine-protein kinase FLT3 (FLT3, Homo sapiens, UniProt P36888, D835Y); cell-free assay: 100%
Serine/threonine-protein kinase TNNI3K (TNNI3K, Homo sapiens, UniProt Q59H18); cell-free assay: 97%
Mitogen-activated protein kinase 14 (MAPK14, Homo sapiens, UniProt Q16539); binding: 0%
Epidermal growth factor receptor (EGFR, Homo sapiens, UniProt P00533, L858R/T790M); cell-free assay: 96%
Ephrin type-B receptor 2 (EPHB2, Homo sapiens, UniProt P29323); cell-free assay: 96%
Tyrosine-protein kinase ABL1, phosphorylated (ABL1, Homo sapiens, UniProt P00519); cell-free assay: 100%
Cyclin-dependent kinase 4, with cyclin D3 (CDK4, Homo sapiens, UniProt P11802); cell-free assay: 100%
Proto-oncogene tyrosine-protein kinase receptor Ret (RET, Homo sapiens, UniProt P07949, M918T); cell-free assay: 86%
Activin receptor type-2A (ACVR2A, Homo sapiens, UniProt P27037); cell-free assay: 100%
Epidermal growth factor receptor (EGFR, Homo sapiens, UniProt P00533, del747-752/P753S); cell-free assay: 100%
Serine/threonine-protein kinase Sgk2 (SGK2, Homo sapiens, UniProt Q9HBY8); cell-free assay: 93%
MAP kinase-activated protein kinase 2 (MAPKAPK2, Homo sapiens, UniProt P49137); cell-free assay: 85%
Activin receptor type-2B (ACVR2B, Homo sapiens, UniProt Q13705); binding: 100%
Serine/threonine-protein kinase Nek7 (NEK7, Homo sapiens, UniProt Q8TDX7); cell-free assay: 100%
ALK tyrosine kinase receptor (ALK, Homo sapiens, UniProt Q9UM73, C1156Y); cell-free assay: 69%
Receptor-type tyrosine-protein kinase FLT3 (FLT3, Homo sapiens, UniProt P36888, K663Q); cell-free assay: 100%
Macrophage colony-stimulating factor 1 receptor, autoinhibited (CSF1R, Homo sapiens, UniProt P07333); cell-free assay: 65%
Receptor-type tyrosine-protein kinase FLT3 (FLT3, Homo sapiens, UniProt P36888); cell-free assay: 100%
Dual serine/threonine and tyrosine protein kinase (DSTYK, Homo sapiens, UniProt Q6XUX3); cell-free assay: 100%
Calcium/calmodulin-dependent protein kinase type IV (CAMK4, Homo sapiens, UniProt Q16566); cell-free assay: 100%
Platelet-derived growth factor receptor beta (PDGFRB, Homo sapiens, UniProt P09619); cell-free assay: 100%
MAP kinase-interacting serine/threonine-protein kinase 1 (MKNK1, Homo sapiens, UniProt Q9BUB5); cell-free assay: 100%
Calcium/calmodulin-dependent protein kinase type II subunit beta (CAMK2B, Homo sapiens, UniProt Q13554); cell-free assay: 100%

Block 3
Compound: N#Cc1cnc2cnc(NCc3cccnc3)cc2c1Nc1ccc(F)c(Cl)c1
Effect on: enzyme activity
Action: inhibitor
Tested at: 0.5 µM
Relative to: control
Quantity: remaining activity
STE20/SPS1-related proline-alanine-rich protein kinase (STK39, Homo sapiens, UniProt Q9UEW8): 78.6%
Mitogen-activated protein kinase kinase kinase 3 (MAP3K3, Homo sapiens, UniProt Q99759): 75%
TGF-beta receptor type-1 (TGFBR1, Homo sapiens, UniProt P36897): 99.6%
Mitogen-activated protein kinase 9 (MAPK9, Homo sapiens, UniProt P45984): 100%
Cyclin-dependent kinase 5, with p25 (CDK5, Homo sapiens, UniProt Q00535): 78.3%
Death-associated protein kinase 1 (DAPK1, Homo sapiens, UniProt P53355): 102%
cGMP-dependent protein kinase 1, isoform beta (PRKG1, Homo sapiens, UniProt Q13976): 87.2%
Inhibitor of nuclear factor kappa-B kinase subunit beta (IKBKB, Homo sapiens, UniProt O14920): 103%
Inhibitor of nuclear factor kappa-B kinase subunit epsilon (IKBKE, Homo sapiens, UniProt Q14164): 90.6%
Death-associated protein kinase 2 (DAPK2, Homo sapiens, UniProt Q9UIK4): 108%
Protein kinase C beta type, isoform beta-I (PRKCB, Homo sapiens, UniProt P05771): 104%
Cyclin-dependent kinase 4, with cyclin D1 (CDK4, Homo sapiens, UniProt P11802): 97.6%
Serine/threonine-protein kinase Nek2 (NEK2, Homo sapiens, UniProt P51955): 75.2%
Serine/threonine-protein kinase Chk2 (CHEK2, Homo sapiens, UniProt O96017): 90.5%
Serine/threonine-protein kinase STK11 (STK11, Homo sapiens, UniProt Q15831): 91.1%
Calcium/calmodulin-dependent protein kinase kinase 2 (CAMKK2, Homo sapiens, UniProt Q96RR4): 90.1%
TGF-beta receptor type-2 (TGFBR2, Homo sapiens, UniProt P37173): 118%
Protein kinase C alpha type (PRKCA, Homo sapiens, UniProt P17252): 89.7%
Serine/threonine-protein kinase 10 (STK10, Homo sapiens, UniProt O94804): 52.8%
Tyrosine-protein kinase Lyn, isoform B (LYN, Homo sapiens, UniProt P07948): 94.1%
Serine/threonine-protein kinase OSR1 (OXSR1, Homo sapiens, UniProt O95747): 87.7%
Calcium/calmodulin-dependent protein kinase type II subunit delta (CAMK2D, Homo sapiens, UniProt Q13557): 103%
cAMP-dependent protein kinase catalytic subunit alpha (PRKACA, Homo sapiens, UniProt P17612): 92.2%
G protein-coupled receptor kinase 3 (GRK3, Homo sapiens, UniProt P35626): 100%

Block 4
Target: UBE2S UBC core domain (UniProt Q16763)
Technique: yeast two-hybrid
Medium: yeast
Notes: mostly zero background
Relative to: not given
Reading: higher = stronger interaction
Quantity: lacZ reporter activity
B1: ZNF598 RING domain (UniProt Q86UK7); chain AAAPERGGGSCVLCCGDLEATALGRCDHPVCYRCSTKMRVLCEQRYCAVCREELRQVVFGK
B2: TRIM69 RING domain (UniProt Q86WT6); chain VIQDITMELHCPLCNDWFRDPLMLSCGHNFCEACIQDFWRLQAKETFCPECKMLCQYNNCTF
B3: RNF170 RING domain (UniProt Q96K19); chain TRQQFYTDMYCPICLHQASFPVETNCGHLFCGACIIAYWRYGSWLGAISCPICRQTVTLLLTVF
Construct (chain): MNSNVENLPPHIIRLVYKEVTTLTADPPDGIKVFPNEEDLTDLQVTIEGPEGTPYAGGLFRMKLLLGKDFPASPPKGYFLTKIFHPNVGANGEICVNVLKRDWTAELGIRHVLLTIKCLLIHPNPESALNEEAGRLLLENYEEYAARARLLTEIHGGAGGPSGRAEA
YWAMDSTFELCKICAESNKDVKIEPCGHLLCSCCLAAWQHSDSQTCPFCRCEIKGWEAVS (CBLC RING domain (UniProt Q9ULV8)): 0
QLQDIKEQTMCPVCLDRLKNMIFLCGHGTCQLCGDRMSECPICRKAIERRILLY (MIB1 RING domain (UniProt Q86YT6)): 0
B1 (ZNF598 RING domain): 0
VTLSLTLPITCHICLGKVRQPVICINNHVFCSICIDLWLKNNSQCPACRVPITPENPCK (OBI1 RING domain (UniProt Q5W0B1)): 0
FPEHFVKSISCQICEHILADPVETNCKHVFCRVCILRCLKVMGSYCPSCRYPCFPTDLES (RAG1 RING domain (UniProt P15918)): 0
FASPPDSNFVCSVCHGVLKRPARLPCSHIFCKKCILRWLARQKTCPCCRKEVKRKKVVH (RNF151 RING domain (UniProt Q2KHN1)): 0
B2 (TRIM69 RING domain): 0
B3 (RNF170 RING domain): 0

For quick reference, copied from above (block 1):
CTCTGTGA: -0.0813
AAGTGTCG: 0.0623
ATAGGAAC: 0.16
AGGTTACC: -0.0561
